Measured values pooled from the literature.
Compare with care: the assays were run in different laboratories. ± gives the spread as reported.

`CCCCn1cc(C(=O)O)c(=O)c2cc(F)c(Nc3cccc(Cl)c3)c([N+](=O)[O-])c21` has an IC50 of 110 ± 4.75 mg/L (SW-620; cell growth, SRB; 72 h).
With `c1cncc(Nc2c3c(nc4ccccc24)CCCC3)c1` the inhibition was 27.5 ± 1.06% (HepG2; MTT; 50 µM, 24 h, 10% FBS).
For `N=C(N)NCCC[C@@H]1NC(=O)[C@H](Cc2csc3ccccc23)NC(=O)[C@@H](Cc2ccccc2)NC(=O)[C@H](Cc2ccccc2)NC(=O)[C@H](CCC(=O)NCCOCCOCC(=O)N[C@@H](CCCCNC(=O)c2ccc3c(c2)C(=O)OC32c3ccc4cc(O)ccc4c3Oc3c2ccc2cc(O)ccc32)C(N)=O)NC(=O)[C@@H](CCCNC(=N)N)NC(=O)[C@H](CCCNC(=N)N)NC(=O)[C@@H](CCCNC(=N)N)NC1=O`, “endosomal escape efficiency” read 164 ± 24% (HeLa; 1.0 µM, 1% FBS; relative to: CPP12).
The IC50 of `CCCCn1cc(C(=O)O)c(=O)c2cc(F)c3c(nnn3-c3ccccc3Cl)c21` is reported as 53.1 ± 4.23 mg/L (HCT-116; cell growth, SRB; 72 h).
For `CC(C)(CO)NCC1=C(O)C(=O)c2ccccc2C1=O`, “median lethal concentration” read 322 ± 28.3 µM (BGM (monkey kidney); MTT; 10% FCS; 24 h).
For `CC(=O)Oc1ccc(Cn2ccc(=O)[nH]c2=O)cc1C1OC(c2ccccc2)=NN1C(C)=O` (stereo not shown), “minimum cytotoxic concentration” read at least 100 µM (HEL fibroblasts; cell morphology alteration).
`CC(C)C[C@@H]1NC(=O)[C@@H](Cc2c[nH]c3ccccc23)NC(=O)[C@H](CCCCN)NC(=O)[C@@H](Cc2c[nH]cn2)NC(=O)[C@H](CO)NC(=O)[C@@H](Cc2c[nH]cn2)NC(=O)[C@H](CCCCN)NC(=O)[C@@H](Cc2c[nH]c3ccccc23)NC1=O` gave an HD50 of 145 µM (erythrocytes; hemolysis).
Under “lowest effective concentration”, `Cc1ccc(/C=C/C(=O)O)cc1-c1cc2c(cc1C)C(C)(C)CCC2(C)C` is recorded as 1.33 µg/mL (TK6; cytotoxicity, GreenScreen; without S9).
`NCc1ccc(NC(=O)c2ccc3ccc(Cl)cc3c2O)cc1` has a cell death of 33% (A549, uninfected; 10 µM, 48 h).
For `CC=C(C)C(=O)OC1C2COC(=O)CCC(=O)CCCCCCC(CCCCC)OC3OC(C)C(OC(C)=O)C(O)C3OC(O2)C(O)C1OC(=O)C(C)=CC` (stereo not shown), the IC50 was 4.5 µM (MDA-MB-231; cytotoxicity).
`COc1ccc(N(C)C(=O)Oc2cc3oc4cc5c(c(O)c4c(=O)c3c(CC=C(C)C)c2OC)C=CC(C)(C)O5)cc1` has an inhibition of 0% (PC-12; cell proliferation, MTT; 10 µM, 24 h).
With `COc1ccc(Nc2c3c(nc4ccccc24)CCCC3)nc1` the inhibition was 11.6 ± 0.28% (HepG2; MTT; 50 µM, 24 h, 10% FBS).
The hemolysis of `N=C(N)NCCC[C@@H](NC(=O)[C@H](N)Cc1c[nH]c2ccccc12)C(=O)N[C@H](CCCCN)C(=O)N[C@H](Cc1c[nH]c2ccccc12)C(=O)N[C@H](CCCNC(=N)N)C(=O)N[C@H](CCCCN)C(=O)N[C@H](Cc1c[nH]c2ccccc12)C(=O)N[C@H](CCCNC(=N)N)C(=O)N[C@H](CCCCN)C(=O)N[C@H](Cc1c[nH]c2ccccc12)C(=O)N[C@H](CCCNC(=N)N)C(=O)N[C@H](CCCCN)C(N)=O` is reported as under 5% (mouse red blood cells; 2048 µM).
Under “minimal cytotoxic concentration”, `CC(=O)OC[C@H]1O[C@@H](NC(=O)/C=C/c2ccc(C(C)C)cc2)[C@H](OC(C)=O)[C@@H](OC(C)=O)[C@@H]1OC(C)=O` is recorded as over 100 µM (HEL fibroblasts; cell morphology; 3 days).
The hemolysis of `CC[C@H](C)[C@H](NC(=O)[C@H](Cc1ccccc1)NC(=O)[C@H](CC(N)=O)NC(=O)[C@H](CCCCN)NC(=O)[C@H](C)NC(=O)[C@@H](NC(=O)[C@H](C)NC(=O)[C@H](Cc1ccccc1)NC(=O)[C@H](C)NC(=O)[C@H](C)NC(=O)[C@H](CCCCN)NC(=O)CNC(=O)[C@@H](NC(=O)[C@H](CCCCN)NC(=O)[C@H](CCCCN)NC(=O)[C@H](C)NC(=O)[C@@H](NC(=O)[C@H](CC(=O)O)NC(=O)[C@H](CC(C)C)NC(=O)[C@H](Cc1c[nH]c2ccccc12)NC(=O)CN)C(C)C)[C@@H](C)CC)C(C)C)C(=O)O` is reported as 100% (erythrocytes; 250 µg/mL, 1 h; relative to: Triton X-100 1%).
Under “median lethal concentration”, `CCNCC1=C(O)C(=O)c2ccccc2C1=O` is recorded as at least 4320 µM (BGM (monkey kidney); MTT; 10% FCS; 24 h).
The IC50 of `CCCCn1cc(C(=O)O)c(=O)c2cc(F)c(Nc3ccccc3Cl)c(N)c21` is reported as 106 µM (HCT-116; cell growth or viability, SRB).
For `c1ccc2nc(Nc3c4c(nc5ccccc35)CCCC4)ccc2c1`, the inhibition was 0.83 ± 0.12% (HepG2; MTT; 50 µM, 24 h, 10% FBS).
Under “minimal cytotoxic concentration”, `CC(=O)OC[C@H]1O[C@@H](NC(=O)NC(=O)[C@@H](C)Cc2ccc(C(C)C)cc2)[C@H](OC(C)=O)[C@@H](OC(C)=O)[C@@H]1OC(C)=O` is recorded as over 100 µM (HEL fibroblasts; cell morphology; 3 days).
`O=C(Cc1nc2cc(Cl)c(Cl)cc2nc1CC(=O)c1cccnc1)c1cccnc1`: “highest non-cytotoxic concentration” over 200 µg/mL (CHO; resazurin; 48 h, 10% FBS).
`CC(=O)Oc1ccc(Cn2cc(C)c(=O)[nH]c2=O)cc1C1OC(c2ccc(Cl)cc2)=NN1C(C)=O` (stereo not shown) — result for “minimum cytotoxic concentration”: 100 µM (HEL fibroblasts; cell morphology alteration).
`O=C(CCCc1ccc2c(c1)CCCC2)N[C@@H]1O[C@H](CO)[C@@H](O)[C@H](O)[C@H]1O`: “minimal cytotoxic concentration” over 100 µM (HEL fibroblasts; cell morphology; 3 days).
`COc1cc(O)c2c(c1)/C=C/C[C@H](O)[C@H](O)C(=O)/C=C\C[C@H](C)OC2=O` — result for cytotoxicity: “not toxic” (Calu-3, SARS-CoV-2 infected; alamarBlue; concentration not given).
With `CC(C)C1=CC2=C(C=O)C[C@@H]3[C@](C)(CCC[C@@]3(C)C(=O)OCC#CCN3CCCC3)[C@H]2CC1` the viability was 89.3% (BHK-21-hACE2; 20.0 µM, 48 (unit not given)).
Under “minimum cytotoxic concentration”, `CC(=O)Oc1ccc(Cn2cc(C)c(=O)[nH]c2=O)cc1C1OC(c2cccc(Cl)c2)=NN1C(C)=O` (stereo not shown) is recorded as 100 µM (HEL fibroblasts; cell morphology, microscopy).
`CCCCCCCCCCCCCCOc1c(O)cc(C(=O)O[C@@H]2Cc3c(O)cc(O)cc3O[C@@H]2c2cc(O)c(O)c(O)c2)cc1O` has a cell death of 45.2% (U-87 MG; CCK-8; 50 µM, 24 h).
`Oc1ccccc1/C=C/c1ccc2ccccc2n1` gave a cytotoxicity ratio of 22.5 (U-937; concentration not given, 72 h; relative to: compound over benznidazole).
For `CC(=O)Oc1ccc(Cn2cc(F)c(=O)[nH]c2=O)cc1C1OC(c2cccc(Cl)c2)=NN1C(C)=O` (stereo not shown), “minimum cytotoxic concentration” read at least 100 µM (HEL fibroblasts; cell morphology alteration).
For `CCCCn1cc(C(=O)O)c(=O)c2cc(F)c3c(nnn3-c3cccc(Cl)c3)c21`, the IC50 was 84.1 µM (HCT-116; cell growth or viability, SRB).
With `CC[C@H](C)[C@@H]([C@@H](CC(=O)N1CCC[C@H]1[C@H](OC)[C@@H](C)C(=O)N[C@@H](Cc1ccccc1)C(=O)O)OC)N(C)C(=O)[C@@H](NC(=O)[C@@H](NC)C(C)C)C(C)C` the EC50 was 0.17 ± 0.03 µM (MDA-MB-231; cytotoxicity).
`CC(=O)OC[C@H]1O[C@@H](NC(=O)COc2ccc(-c3ccccc3)cc2)[C@H](OC(C)=O)[C@@H](OC(C)=O)[C@@H]1OC(C)=O` — result for “minimal cytotoxic concentration”: over 100 µM (HEL fibroblasts; cell morphology; 3 days).
`CC=C(C)C(=O)OC1C(O)C2OC(COC(=O)CCCCCCCCCC(CCCCC)OC3OC(C)C(OC(C)=O)C(O)C3O2)C1OC(=O)C=Cc1ccccc1` (stereo not shown) gave an IC50 of 0.0111 µM (U-937; cytotoxicity).
The viability of `CCN(CC)CC#CCO[C@H]1CC[C@H](O)[C@@H]2[C@H]1[C@H]1C[C@@H]3[C@@]4(C)CCC[C@@](C)(C(=O)OC)[C@@H]4CC[C@@]23C=C1C(C)C` is reported as 81.5% (BHK-21-hACE2; 20.0 µM, 48 (unit not given)).
`CCc1ccc([C@H](C)CC(=O)NC(=O)N[C@@H]2O[C@H](COC(C)=O)[C@@H](OC(C)=O)[C@H](OC(C)=O)[C@H]2OC(C)=O)cc1`: “minimal cytotoxic concentration” over 100 µM (HEL fibroblasts; cell morphology; 3 days).
`CC(C)[C@@H]1NC(=O)[C@H](Cc2ccccc2)NC(=O)[C@@H]2NC(=O)[C@H](Cc3ccccc3)NC(=O)[C@@H]3CCCN3C(=O)CNC(=O)[C@H](Cc3ccccc3)NC(=O)[C@@H]3CNCCCC[C@@H](C(=O)O)NC(=O)[C@@H]4NC(=O)[C@H](CC(N)=O)NC(=O)CNC(=O)[C@H]([C@@H](O)C(=O)O)NC(=O)[C@H](CSC[C@@H](NC(=O)[C@H](CCC(N)=O)NC(=O)[C@H](CCCNC(=N)N)NC(=O)[C@@H](N)CS[C@H]4C)C(=O)N[C@@H](CS[C@H]2C)C(=O)N3)NC1=O` gave a cytotoxic concentration of about 200 nM (CEM 1A2 tat/rev++; MTT).
For `C=Cc1c(C)c2cc3nc(c(CC(=O)O)c4[nH]c(cc5nc(cc1[nH]2)C(C)=C5CC)c(C)c4C(=O)O)[C@@H](CCC(=O)NCCCC[C@H](NC(C)=O)C(=O)N[C@@H](Cc1ccccc1)C(=O)N[C@@H](Cc1ccccc1)C(=O)N[C@H](C(=O)N[C@@H](CC(C)C)C(=O)N[C@@H](CCCCN)C(=O)N[C@@H](CO)C(=O)NCC(=O)N[C@@H](CCC(N)=O)C(=O)NCC(=O)N[C@@H](Cc1ccc(O)cc1)C(=O)N[C@@H](CCCNC(=N)N)C(=O)N[C@@H](Cc1c[nH]c2ccccc12)C(=O)N[C@@H](CC(=O)O)C(=O)N[C@@H](CO)C(=O)N[C@@H](Cc1ccc(O)cc1)C(=O)N[C@@H](CCCNC(=N)N)C(=O)N[C@@H](Cc1c[nH]c2ccccc12)C(=O)N[C@@H](Cc1c[nH]cn1)C(=O)N1CCC[C@H]1C(=O)N[C@@H](CO)C(=O)N[C@@H](CS)C(=O)N[C@@H](C)C(=O)N[C@@H](CS)C(=O)NCC(=O)NCC(=O)N[C@@H](CO)C(=O)N[C@@H](CCCCN)C(N)=O)C(C)C)[C@@H]3C`, cytotoxicity read “not toxic” (LLC; CCK-8; 1 to 200 µM, 24 h).
For `CCCCn1cc(C(=O)O)c(=O)c2cc(F)c(Nc3ccccc3Cl)c([N+](=O)[O-])c21`, the IC50 was 118 ± 22.2 mg/L (SW-620; cell growth, SRB; 72 h).
With `CC(=O)N[C@@H](CC(=O)O)C(=O)N[C@@H](CCC(=O)O)C(=O)N[C@@H](CC(=O)O)C(=O)N[C@H](C(=O)NCC(=O)NCC(=O)NCC(=O)NCCNC(=O)OCC1c2ccccc2-c2ccccc21)C(C)C` the unmetabolized fraction was 62.9% (HepG2; 200 µM, 2 h, 37 °C).
Under cytotoxicity, `COCc1cc(C)nc(SCC[N+](C)(C)CC(=O)Nc2cccc(C(F)(F)F)c2)c1C#N` is recorded as “not toxic” (PC-12; MTS; 10 µM, 48 h).
`COc1c(OC(=O)N(C)c2cccc(C)c2)cc2oc3cc4c(c(O)c3c(=O)c2c1CC=C(C)C)C=CC(C)(C)O4` has an inhibition of 0% (PC-12; cell proliferation, MTT; 10 µM, 24 h).
For `O=C1CCc2ccc(OCCCCCCSC(=S)N3CCCCC3)cc2N1`, cytotoxicity read “not toxic” (PC-12; CCK-8; up to 12.5 µM, 24 h).
`COc1ccc2cc(Nc3c4c(nc5ccccc35)CCCC4)ccc2c1` gave an inhibition of 84.2 ± 2.27% (HepG2; MTT; 50 µM, 24 h, 10% FBS).
`CC(=O)Oc1ccc(Cn2ccc(=O)[nH]c2=O)cc1C1OC(c2ccc(Cl)cc2)=NN1C(C)=O` (stereo not shown) — result for “minimum cytotoxic concentration”: 100 µM (HEL fibroblasts; cell morphology alteration).

Repeated from above:
`COc1ccc(N(C)C(=O)Oc2cc3oc4cc5c(c(O)c4c(=O)c3c(CC=C(C)C)c2OC)C=CC(C)(C)O5)cc1` has an inhibition of 0% (PC-12; cell proliferation, MTT; 10 µM, 24 h).
With `COc1ccc(Nc2c3c(nc4ccccc24)CCCC3)nc1` the inhibition was 11.6 ± 0.28% (HepG2; MTT; 50 µM, 24 h, 10% FBS).
The hemolysis of `N=C(N)NCCC[C@@H](NC(=O)[C@H](N)Cc1c[nH]c2ccccc12)C(=O)N[C@H](CCCCN)C(=O)N[C@H](Cc1c[nH]c2ccccc12)C(=O)N[C@H](CCCNC(=N)N)C(=O)N[C@H](CCCCN)C(=O)N[C@H](Cc1c[nH]c2ccccc12)C(=O)N[C@H](CCCNC(=N)N)C(=O)N[C@H](CCCCN)C(=O)N[C@H](Cc1c[nH]c2ccccc12)C(=O)N[C@H](CCCNC(=N)N)C(=O)N[C@H](CCCCN)C(N)=O` is reported as under 5% (mouse red blood cells; 2048 µM).
